Results of several laboratories.
Each line is one published result; not all experiments were run side by side. ± gives the spread as reported.

| SMILES | test | system | conditions | scale | measurement | value |
| --- | --- | --- | --- | --- | --- | --- |
| N#Cc1nc(N2CCOCC2)nc(N(Cc2ccc(F)cc2)CC2CCCNC2)n1 (centres unmarked) |  | female CD-1 mice | intraperitoneal, 10 mg/kg, 4 h |  | plasma concentration | 65.9 ng/mL |
| NCCCC(=O)OCC(=O)c1ccc(O)cc1F.O=C(O)C(F)(F)F | photolysis, refers to: disappearance of compound | aqueous HEPES buffer with LiClO4 | pH 7.3 |  | quantum yield | 0.21 |
| CC(C)[C@H](NC(=O)CNC(=O)[C@H](CCC(N)=O)NC(=O)[C@H](C)N)C(=O)O |  | human | dose not given, across phase I studies |  | volume of distribution | ≥ 1 L/kg |
| CCOC(=O)c1ccc(-n2cc(Cn3c(=O)c(Cc4ccccc4)nc4ccccc43)nn2)cc1 | MTT | rat primary colonocytes, Albino rat, male | 72 h, concentration at 100% viability |  | safe concentration | 0.016 ± 0.002 µM |
| O=C(C[c-]1cccc1)Oc1ccc(-n2cccc2)cc1.[Fe+2].c1cc[cH-]c1 | cyclic voltammetry | acetonitrile |  | relative to: Ag/AgCl | Epa | 503 mV |
| COc1cc(C)c(Cc2ccc(O)cc2)cc1[C@@H]1S[C@H](CO)[C@@H](O)[C@H](O)[C@H]1O |  | Japanese T2DM patients, urine | 0.5 mg luseogliflozin, day 1, once daily | relative to: dose | urinary excretion 0-24 h | 5.22 ± 0.848% |
| COc1cc2c(cc1OC)CN(CCCCn1ccc3cc(OCC[18F])ccc31)C2 |  | ICR mice, male, lung | intravenous, 60 min |  | uptake | 5.18 ± 0.83 %ID/g |
| CC[C@H](C)[C@H](NC(=O)[C@H](Cc1ccc(O)cc1)NC(=O)[C@H](CCCNC(=N)N)NC(=O)[C@H](CCCNC(=N)N)NC(=O)[C@H](CC(C)C)NC(=O)[C@H](CC(=O)O)NC(=O)[C@H](C)NC(=O)[C@H](C)NC(=O)[C@H](Cc1ccc(O)cc1)NC(=O)[C@H](CCC(N)=O)NC(=O)[C@H](C)NC(=O)[C@H](CCSC)NC(=O)[C@H](CCC(N)=O)NC(=O)[C@H](CCC(=O)O)NC(=O)[C@@H]1CCCN1C(=O)[C@@H](NC(=O)[C@H](C)NC(=O)[C@H](CC(N)=O)NC(=O)[C@H](CC(=O)O)NC(=O)CNC(=O)[C@@H]1CCCN1C(=O)[C@H](Cc1ccc(O)cc1)NC(=O)[C@@H](NC(=O)[C@@H]1CCCN1C(=O)[C@H](CCC(=O)O)NC(=O)[C@H](CC(C)C)NC(=O)[C@@H]1CCCN1C(=O)[C@H](C)N)C(C)C)[C@@H](C)O)C(=O)N[C@@H](CC(N)=O)C(=O)N[C@@H](CCSC)C(=O)N[C@@H](CC(C)C)C(=O)N[C@H](C(=O)N[C@@H](CCCNC(=N)N)C(=O)N1CCC[C@H]1C(=O)N[C@@H](CCCNC(=N)N)C(=O)N[C@@H](Cc1ccc(O)cc1)C(N)=O)[C@@H](C)O | dynamic light scattering | PBS | 4 µM, pH 7.4, smaller population, no SSM |  | hydrodynamic diameter | 98.3 ± 17.9 nm |
| CC(C)(O)c1ncc([S@](N)(=O)=NC(=O)Nc2c3c(cc4c2CCC4)CCC3)s1 |  | healthy human | oral, 200 mg once daily, day 14, spray-dried dispersion, geometric mean |  | AUC(0-tau) | 181 µg·h/mL |
| CCCCCCCCCCCCCCCC(=O)N[C@@H](CCC(=O)NCCCC[C@H](NC(=O)[C@H](CC(=O)O)NC(=O)[C@H](CO)NC(=O)[C@@H](NC(=O)[C@H](Cc1ccccc1)NC(=O)[C@@H](NC(=O)CNC(=O)[C@H](CCC(N)=O)NC(=O)[C@H](CO)NC(=O)[C@@H](N)Cc1c[nH]cn1)[C@@H](C)O)[C@@H](C)O)C(=O)N[C@@H](CO)C(=O)N[C@@H](CCC(=O)O)C(=O)N[C@@H](Cc1ccc(O)cc1)C(=O)N[C@@H](CC(C)C)C(=O)N[C@@H](CC(=O)O)C(=O)N[C@@H](CO)C(=O)N[C@@H](CCC(=O)O)C(=O)N[C@@H](CCCNC(=N)N)C(=O)N[C@@H](C)C(=O)N[C@@H](CCCNC(=N)N)C(=O)N[C@@H](CC(=O)O)C(=O)N[C@@H](Cc1ccccc1)C(=O)N[C@H](C(=O)N[C@@H](C)C(=O)N[C@@H](Cc1c[nH]c2ccccc12)C(=O)N[C@@H](CC(C)C)C(=O)N[C@@H](CCC(=O)O)C(=O)N[C@@H](C)C(=O)NCC(=O)NCC(=O)O)C(C)C)C(=O)O |  | cynomolgus monkey, plasma | subcutaneous, dose not given, single dose |  | terminal half-life | 5 to 8 h |
| Cn1c(=O)oc2ccc(-c3ccc(CC(C#N)NC(=O)C4CNCCCO4)c(F)c3)cc21 (centres unmarked) | refers to: blood triglycerides increased | human | 80 mg, treatment-related, single dose, fasted |  | subjects with adverse event | 0% |
| CN1CCC[C@]1(C)/C=C/S(=O)(=O)NC(=O)Nc1c2c(cc3c1CCC3)CCC2 |  | human, plasma | oral, 100 mg twice daily, day 14, tau 12 h, multiple ascending dose |  | AUC(0-tau) | 92.9 µg·h/mL |
| CC(C)CCCC(C)CCCC(C)CCO[C@@H]1O[C@H](CO)[C@@H](O[C@H]2O[C@H](CO)[C@@H](O)[C@H](O)[C@H]2O)[C@H](O)[C@H]1O (some centres unmarked) | dynamic surface tension |  | 0.0036 mmol/L |  | induction time | 180 s |
| CCCC[C@H](NC(C)=O)C(=O)N[C@H]1CC(=O)NCCCC[C@@H](C(=O)N[C@@H](C(=O)N2CCC[C@@H]2C(N)=O)C(C)C)NC(=O)[C@H](Cc2c[nH]c3ccccc23)NC(=O)[C@H](CCCN=C(N)N)NC(=O)[C@@H](Cc2ccc3ccccc3c2)NC(=O)[C@@H]2CCCN2C1=O |  | healthy dogs, plasma | subcutaneous, 2.25 mg/kg per day, day 1, 30 min post-dose, median |  | plasma histamine | 8.02 ng/mL |
| CC(C)(C)ONc1nc(Nc2ccnc(C(F)(F)F)c2)nc(-c2cccc(C(F)(F)F)n2)n1 |  | female Balb/cA nude mice xenograft | oral, 18.05 mg/kg, AUC(0-24 h) | relative to: tumour over plasma | tissue/plasma ratio | 7.6 |
| COc1ccc(/C=C/c2ccc(-c3ccc(C)cn3)nc2)cc1 |  | acetonitrile | zinc complex |  | emission maximum | 533 nm |
| CN(O)C(=O)CCC(=O)NCCCN(CCCCN(CCCNC(=O)CCC(=O)N(C)O)C(=O)CCC(=O)N(C)O)C(=O)CCC(=O)N(C)O.[89Zr] |  | mouse, liver | 4 h |  | tracer uptake | 0.08 %ID/g |
| CC(C)[C@H](NC(=O)[C@@H]1CCCN1C(=O)[C@H](CCCNC(=N)N)NC(=O)[C@H](CS)NC(=O)[C@H](Cc1c[nH]c2ccccc12)NC(=O)[C@H](CCCNC(=N)N)NC(=O)[C@@H](Cc1ccccc1)NC(=O)[C@H](Cc1c[nH]cn1)NC(=O)[C@H](CCC(=O)O)NC(=O)[C@H](CS)NC(=O)[C@H](CS)NC(=O)[C@@H]1CC(=O)N[C@@H](CCCNC(=N)N)C(=O)NCC(=O)N[C@@H](CC(=O)O)C(=O)N[C@H](Cc2ccc(O)cc2)C(=O)N1)C(N)=O [technetium-99m labelled] |  | C57 mouse, female, B16/F1 melanoma | intravenous, 0.037 MBq, 0.5 h | relative to: tumour over lung | tumour to tissue ratio | 1.15 |
| Oc1ccc2ccccc2c1/N=N/c1ccc(/N=N/c2ccccc2)cc1 |  | rat whole blood QC samples | 5.0 µg/L, 4 h, room temperature, short-term stability |  | measured concentration | 5.13 µg/L |
| N=C(N)NCCC[C@@H]1NC(=O)[C@H](Cc2c[nH]c3ccccc23)NC(=O)[C@@H](CC2CCCCC2)NC(=O)[C@@H]2CCCN2C(=O)[C@@H](NC(=O)CCc2ccccc2)CCCNC1=O |  | C57BL/6J mouse, spinal cord | oral, 1 mg/kg, single dose, two-compartment model |  | redistribution rate constant (K21) | 0.33 h⁻¹ |
| COc1cc(NC(C)=O)c2c(c1O)-c1c(OC)c(OC)cc3c1C(C2)N(C)CC3 (centres unmarked) |  | rat, plasma | 0.5 µg/mL, 4 h, room temperature, short-term storage |  | remaining compound | 101 ± 3.2% |
| CC(C)CNC(=O)/C=C/CCc1ccc2c(c1)OCO2 |  | rat, sham-operated, plasma | oral, 50 mg/kg |  | MRT | 3.03 ± 0.93 h |
| NCC(=O)N1CCC[C@H]1C(=O)N1C[C@H](O)C[C@H]1C(=O)O | potentiometric titration | water | 37 °C, 0.15 mol/dm3 NaCl |  | pKa2 | 3.07 |
| Oc1cccc(-c2cccc(O)n2)n1.[Cl-].[Cl-].[Ru+2].c1cnc2c(c1)c1c(c3cccnc32)OCCO1.c1cnc2c(c1)c1c(c3cccnc32)OCCO1 | shake flask | octanol/phosphate buffer | pH 6.00 |  | logD | 1.45 |
| NCCCC(=O)OCC(=O)c1c(F)cc(O)cc1F.O=C(O)C(F)(F)F | photolysis, refers to: rearranged acid appearance | aqueous HEPES buffer with LiClO4 | pH 8.2 |  | quantum yield | 0.02 |
| CC[C@H](C)[C@H](NC(=O)[C@H](CC(C)C)NC(=O)[C@H](Cc1c[nH]c2ccccc12)NC(=O)[C@H](C)NC(=O)[C@@H](NC(=O)[C@H](Cc1ccccc1)NC(=O)[C@H](CC(=O)O)NC(=O)[C@H](CCCNC(=N)N)NC(=O)[C@H](C)NC(=O)[C@H](C)NC(=O)[C@H](CC(C)C)NC(=O)[C@H](C)NC(=O)[C@H](CC(=O)O)NC(=O)[C@H](CC(C)C)NC(=O)[C@@H](NC(=O)[C@@H](NC(=O)[C@H](C)NC(=O)[C@H](CC(C)C)NC(=O)[C@H](CCC(=O)O)NC(=O)[C@H](CO)NC(=O)[C@H](CO)NC(=O)[C@H](Cc1ccccc1)NC(=O)[C@@H](NC(=O)CNC(=O)[C@H](CCC(=O)O)NC(=O)CNC(=O)[C@@H](N)Cc1c[nH]cn1)[C@@H](C)O)[C@@H](C)O)[C@@H](C)CC)[C@@H](C)CC)C(=O)N[C@@H](C)C(=O)N[C@H](C(=O)N[C@@H](CCCCN)C(=O)N[C@H](C(=O)N[C@H](C(=O)N[C@@H](CC(=O)O)C(=O)N[C@@H](CCCCN)C(=O)O)[C@@H](C)O)[C@@H](C)CC)[C@@H](C)O | immunoaffinity LC-MS/MS | healthy human subjects, plasma | subcutaneous, 5 mg once weekly, day 36 after 6 doses, steady state, geometric mean |  | AUClast | 0.109 µM·h |

For quick reference, copied from above:
| SMILES | test | system | conditions | scale | measurement | value |
| --- | --- | --- | --- | --- | --- | --- |
| Cn1c(=O)oc2ccc(-c3ccc(CC(C#N)NC(=O)C4CNCCCO4)c(F)c3)cc21 (centres unmarked) | refers to: blood triglycerides increased | human | 80 mg, treatment-related, single dose, fasted |  | subjects with adverse event | 0% |
| N#Cc1nc(N2CCOCC2)nc(N(Cc2ccc(F)cc2)CC2CCCNC2)n1 (centres unmarked) |  | female CD-1 mice | intraperitoneal, 10 mg/kg, 4 h |  | plasma concentration | 65.9 ng/mL |
| CC(C)[C@H](NC(=O)CNC(=O)[C@H](CCC(N)=O)NC(=O)[C@H](C)N)C(=O)O |  | human | dose not given, across phase I studies |  | volume of distribution | ≥ 1 L/kg |
